Measurements from different studies.
Protocols differ between the studies behind these lines. “And” joins repeats or separate records; there may be more than shown. Numbers after ± are the reported error.
HLA class I histocompatibility antigen, A alpha chain allele A*01:01: HLA class I histocompatibility antigen, A alpha chain, allele A*01:01 (Homo sapiens, UniProt P04439)
HLA class I histocompatibility antigen, A alpha chain allele A*02:01: HLA class I histocompatibility antigen, A alpha chain, allele A*02:01 (Homo sapiens, UniProt P04439)
HLA class I histocompatibility antigen, A alpha chain allele A*24:02: HLA class I histocompatibility antigen, A alpha chain, allele A*24:02 (Homo sapiens, UniProt P04439)
UniProt Q64663, sequence (whole entry, unmodified, looked up): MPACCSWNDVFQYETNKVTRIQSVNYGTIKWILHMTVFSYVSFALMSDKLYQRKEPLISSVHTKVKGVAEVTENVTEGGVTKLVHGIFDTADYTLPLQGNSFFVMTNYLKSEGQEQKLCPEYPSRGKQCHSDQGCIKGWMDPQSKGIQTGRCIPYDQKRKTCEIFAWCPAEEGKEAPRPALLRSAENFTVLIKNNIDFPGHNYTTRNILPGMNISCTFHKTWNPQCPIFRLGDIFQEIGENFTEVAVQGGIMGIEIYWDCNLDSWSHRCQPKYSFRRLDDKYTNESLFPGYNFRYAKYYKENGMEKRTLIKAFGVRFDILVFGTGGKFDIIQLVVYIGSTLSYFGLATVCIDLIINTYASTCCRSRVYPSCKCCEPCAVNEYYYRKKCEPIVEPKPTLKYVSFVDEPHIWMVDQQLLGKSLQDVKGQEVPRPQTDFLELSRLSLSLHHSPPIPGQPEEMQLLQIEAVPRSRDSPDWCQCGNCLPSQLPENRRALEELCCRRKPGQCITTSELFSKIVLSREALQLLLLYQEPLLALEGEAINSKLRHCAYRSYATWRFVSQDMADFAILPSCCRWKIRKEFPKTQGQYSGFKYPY
UniProt P48067, sequence (whole entry, looked up): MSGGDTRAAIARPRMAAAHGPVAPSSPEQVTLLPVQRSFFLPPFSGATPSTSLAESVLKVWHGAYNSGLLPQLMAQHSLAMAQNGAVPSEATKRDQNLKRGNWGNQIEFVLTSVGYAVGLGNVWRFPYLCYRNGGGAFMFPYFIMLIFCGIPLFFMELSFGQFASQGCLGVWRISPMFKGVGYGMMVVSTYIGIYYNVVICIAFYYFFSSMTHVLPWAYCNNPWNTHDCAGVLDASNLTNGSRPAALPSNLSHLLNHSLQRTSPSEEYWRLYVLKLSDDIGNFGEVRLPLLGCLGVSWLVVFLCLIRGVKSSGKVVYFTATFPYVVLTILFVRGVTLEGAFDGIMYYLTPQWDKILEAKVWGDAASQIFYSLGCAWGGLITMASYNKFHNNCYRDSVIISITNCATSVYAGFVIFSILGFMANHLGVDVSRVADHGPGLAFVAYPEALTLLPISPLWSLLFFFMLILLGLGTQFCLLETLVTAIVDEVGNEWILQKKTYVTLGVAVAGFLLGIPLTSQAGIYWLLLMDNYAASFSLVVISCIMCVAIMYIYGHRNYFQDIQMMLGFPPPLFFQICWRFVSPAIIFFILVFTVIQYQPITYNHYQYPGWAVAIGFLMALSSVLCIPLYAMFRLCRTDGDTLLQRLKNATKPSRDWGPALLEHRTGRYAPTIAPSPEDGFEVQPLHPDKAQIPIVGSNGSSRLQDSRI
UniProt Q15172, sequence (whole entry, looked up): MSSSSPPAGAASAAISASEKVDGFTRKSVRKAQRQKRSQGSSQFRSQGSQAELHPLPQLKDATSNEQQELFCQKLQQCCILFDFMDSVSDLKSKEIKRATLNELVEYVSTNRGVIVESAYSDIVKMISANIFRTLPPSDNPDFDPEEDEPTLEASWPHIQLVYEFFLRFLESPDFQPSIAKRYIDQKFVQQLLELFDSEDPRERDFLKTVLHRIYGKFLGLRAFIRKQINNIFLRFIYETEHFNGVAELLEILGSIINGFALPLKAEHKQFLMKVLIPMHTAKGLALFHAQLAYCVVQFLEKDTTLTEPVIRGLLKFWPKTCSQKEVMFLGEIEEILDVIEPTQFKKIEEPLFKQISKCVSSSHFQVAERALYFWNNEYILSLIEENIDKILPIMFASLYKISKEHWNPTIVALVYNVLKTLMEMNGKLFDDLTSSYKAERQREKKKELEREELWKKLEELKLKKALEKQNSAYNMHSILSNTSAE
UniProt Q14160, sequence (whole entry, looked up): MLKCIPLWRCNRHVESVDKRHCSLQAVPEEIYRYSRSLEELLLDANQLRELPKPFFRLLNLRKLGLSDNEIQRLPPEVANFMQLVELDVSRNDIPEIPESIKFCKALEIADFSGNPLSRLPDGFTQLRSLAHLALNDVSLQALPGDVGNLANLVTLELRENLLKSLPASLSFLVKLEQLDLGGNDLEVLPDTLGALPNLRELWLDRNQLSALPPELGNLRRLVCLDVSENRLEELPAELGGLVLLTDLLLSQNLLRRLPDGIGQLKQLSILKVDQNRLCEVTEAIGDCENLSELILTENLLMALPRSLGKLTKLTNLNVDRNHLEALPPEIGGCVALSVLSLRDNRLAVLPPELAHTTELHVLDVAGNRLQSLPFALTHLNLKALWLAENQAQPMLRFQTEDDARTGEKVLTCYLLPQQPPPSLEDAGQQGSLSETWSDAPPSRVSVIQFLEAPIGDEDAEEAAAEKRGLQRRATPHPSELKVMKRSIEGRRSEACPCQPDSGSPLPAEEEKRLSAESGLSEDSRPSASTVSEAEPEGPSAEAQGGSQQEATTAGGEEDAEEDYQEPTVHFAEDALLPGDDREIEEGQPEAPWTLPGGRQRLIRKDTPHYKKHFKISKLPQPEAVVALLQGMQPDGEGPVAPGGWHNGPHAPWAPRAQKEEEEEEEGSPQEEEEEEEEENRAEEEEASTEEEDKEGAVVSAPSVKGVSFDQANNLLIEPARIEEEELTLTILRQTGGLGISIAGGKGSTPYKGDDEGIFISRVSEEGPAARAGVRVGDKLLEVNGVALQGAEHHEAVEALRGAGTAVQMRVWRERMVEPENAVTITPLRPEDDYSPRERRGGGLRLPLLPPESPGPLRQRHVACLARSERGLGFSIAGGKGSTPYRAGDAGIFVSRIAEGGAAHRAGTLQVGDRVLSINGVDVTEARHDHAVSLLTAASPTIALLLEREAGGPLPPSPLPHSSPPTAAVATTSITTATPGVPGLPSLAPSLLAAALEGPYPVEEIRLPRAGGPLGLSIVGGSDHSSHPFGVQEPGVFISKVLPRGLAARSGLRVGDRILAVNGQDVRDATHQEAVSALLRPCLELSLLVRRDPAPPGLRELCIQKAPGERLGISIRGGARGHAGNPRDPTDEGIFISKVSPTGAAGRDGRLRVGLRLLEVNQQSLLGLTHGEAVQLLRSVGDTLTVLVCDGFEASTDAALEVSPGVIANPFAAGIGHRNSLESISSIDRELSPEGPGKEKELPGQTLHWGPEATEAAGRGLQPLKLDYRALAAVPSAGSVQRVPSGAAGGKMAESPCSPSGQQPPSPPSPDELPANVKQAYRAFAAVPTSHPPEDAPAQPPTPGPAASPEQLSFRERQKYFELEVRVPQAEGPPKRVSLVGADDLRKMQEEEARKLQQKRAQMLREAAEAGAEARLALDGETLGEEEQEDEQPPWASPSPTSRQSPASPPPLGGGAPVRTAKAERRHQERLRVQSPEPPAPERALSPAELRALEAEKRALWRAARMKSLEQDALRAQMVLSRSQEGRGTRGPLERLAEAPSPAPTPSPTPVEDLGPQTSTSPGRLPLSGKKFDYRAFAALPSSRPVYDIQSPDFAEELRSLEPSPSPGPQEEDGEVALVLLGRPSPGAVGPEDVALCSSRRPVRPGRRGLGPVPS
UniProt P50613, sequence (whole entry, looked up): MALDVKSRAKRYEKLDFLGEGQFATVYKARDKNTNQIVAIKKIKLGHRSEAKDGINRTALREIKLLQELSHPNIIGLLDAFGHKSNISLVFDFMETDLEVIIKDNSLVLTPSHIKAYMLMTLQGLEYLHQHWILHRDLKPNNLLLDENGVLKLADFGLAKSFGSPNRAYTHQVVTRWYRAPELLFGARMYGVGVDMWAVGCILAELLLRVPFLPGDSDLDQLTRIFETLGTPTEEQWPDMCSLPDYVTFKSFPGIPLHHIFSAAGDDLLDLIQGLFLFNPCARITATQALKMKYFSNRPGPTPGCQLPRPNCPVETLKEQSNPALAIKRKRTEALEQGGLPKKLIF
UniProt P30101, sequence (whole entry, looked up): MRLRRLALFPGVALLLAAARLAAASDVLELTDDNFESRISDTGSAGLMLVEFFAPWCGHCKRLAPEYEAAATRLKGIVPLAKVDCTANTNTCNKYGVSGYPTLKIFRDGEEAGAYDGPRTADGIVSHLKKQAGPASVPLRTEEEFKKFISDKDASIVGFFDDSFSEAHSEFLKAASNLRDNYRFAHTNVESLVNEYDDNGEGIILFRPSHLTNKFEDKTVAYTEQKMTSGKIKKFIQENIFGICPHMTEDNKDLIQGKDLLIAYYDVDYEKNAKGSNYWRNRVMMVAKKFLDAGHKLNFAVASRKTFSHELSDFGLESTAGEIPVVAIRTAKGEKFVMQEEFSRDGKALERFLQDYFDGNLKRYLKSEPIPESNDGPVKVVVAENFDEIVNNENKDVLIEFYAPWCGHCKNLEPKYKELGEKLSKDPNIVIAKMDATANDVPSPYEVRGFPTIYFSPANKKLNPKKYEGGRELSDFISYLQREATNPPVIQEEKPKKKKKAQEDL
UniProt P25297, sequence (whole entry, looked up): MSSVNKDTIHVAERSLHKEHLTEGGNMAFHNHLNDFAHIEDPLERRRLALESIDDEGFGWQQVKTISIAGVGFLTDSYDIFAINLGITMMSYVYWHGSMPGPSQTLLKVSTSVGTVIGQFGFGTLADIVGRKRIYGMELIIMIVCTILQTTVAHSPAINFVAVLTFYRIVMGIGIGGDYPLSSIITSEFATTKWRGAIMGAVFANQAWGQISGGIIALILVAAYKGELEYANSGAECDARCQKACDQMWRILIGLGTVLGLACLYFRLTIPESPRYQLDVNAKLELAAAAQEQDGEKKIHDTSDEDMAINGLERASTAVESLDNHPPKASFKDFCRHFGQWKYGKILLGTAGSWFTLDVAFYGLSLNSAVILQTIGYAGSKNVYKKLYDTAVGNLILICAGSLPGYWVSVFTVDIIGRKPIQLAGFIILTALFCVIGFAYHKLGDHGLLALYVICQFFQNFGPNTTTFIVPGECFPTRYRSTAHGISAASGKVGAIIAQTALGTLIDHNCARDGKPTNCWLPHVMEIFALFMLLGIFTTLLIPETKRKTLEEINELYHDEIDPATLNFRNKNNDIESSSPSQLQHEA

The Kd of `AEKKKSKKSV` is reported as 100 µM (Protein scribble homolog, PDZ3 domain (SCRIB, Homo sapiens, UniProt Q14160); binding, fluorescence polarization; peptide, solution; Scribble PDZ3 domain).
With `LMPFGSLLDYV` the binding score was 0.7% (HLA class I histocompatibility antigen, A alpha chain allele A*01:01; conformational ELISA; peptide; concentration not given; relative to: positive control peptide, direction not given).
With `FMLGEFLKL` the relative affinity was 1.5 (HLA class I histocompatibility antigen, A alpha chain allele A*02:01; HLA-A2 stabilization, peptide titration; peptide, T2; 20 h, 37 °C, together with: human β2-microglobulin 100 ng/mL; relative to: HIVpol reference peptide, lower is stronger).
With `ITDFGRAKL` the binding score was 15.1% (HLA class I histocompatibility antigen, A alpha chain allele A*24:02; conformational ELISA; peptide; concentration not given; relative to: positive control peptide, direction not given).
With `demethoxycurcumin` the inhibition was 50.1 ± 5.4% (CDK7 (Homo sapiens, UniProt P50613); enzyme activity, inhibitor, ADP-Glo kinase; 10 µM).
For `ITQLMPFGSLL`, the binding score was 1.3% (HLA class I histocompatibility antigen, A alpha chain allele A*01:01; conformational ELISA; peptide; concentration not given; relative to: positive control peptide, direction not given).
`11-deoxycorticosterone` — result for “rate constant k2”: 0.0128 ± 0.474 s⁻¹ (CYP11B2 (human); substrate binding, stopped-flow global kinetic fitting; purified enzyme; 3-state induced fit model, together with: 40-fold excess adrenodoxin).
`CTIL` gave a kcat/KM of 210000 M⁻¹ s⁻¹ (Candida albicans protein farnesyltransferase; peptide farnesylation, substrate; peptide; together with: C15-Alk 4 µM).
`ACACACACACAC (dsDNA)` gave a Kd of 3.88 ± 0.431 µM (Fibroin-modulator-binding protein-1 99-193 (Bombyx mori, UniProt Q5FBS0); ITC; double-stranded DNA, one strand shown).
`methyl-β-cyclodextrin`: “glycine uptake rate” 21.6 a.u. and 21.9 a.u. and 27.5 a.u. and 29 a.u. and 28.8 a.u. (SLC6A9 (Homo sapiens, UniProt P48067); transport activity, [3H]glycine uptake; 3.5 mg/mL, 1 min, together with: glycine 75 µM; higher = more transport).
For `BzATP`, the normalized current was 1 and 0.993 and 0.967 (P2X purinoceptor 7 (P2rx7, Rattus norvegicus, UniProt Q64663, R125A); ion current, agonist, two-electrode voltage clamp; Xenopus oocytes; 33.33 µM).
`TSTVQLIMQL` has a binding score of 3.7% (HLA class I histocompatibility antigen, A alpha chain allele A*02:01; conformational ELISA; peptide; concentration not given; relative to: positive control peptide, direction not given).
`Tannic acid`: inhibition “inhibited” (PDIA3 (Homo sapiens, UniProt P30101); disulfide reductase activity; 20 µM, 15 min, together with: di-eosin-GSSG).
With `6-carboxyfluorescein` the uptake was 57.4% and 48% (SLCO2A1 (Homo sapiens, UniProt Q92959, W565F); compound uptake, substrate; HEK293F expressing SLCO2A1 W565F; 50 µM; relative to: wild type).
`TSFFSGLSPIEEEAD` — result for “time to equilibrium”: ~24 h (Serine/threonine-protein phosphatase 2A 56 kDa regulatory subunit alpha isoform (Homo sapiens, UniProt Q15172); binding kinetics; peptide; 2 µM, 4 °C).
For `TVQLIMQLMPF`, the binding score was 22.2% (HLA class I histocompatibility antigen, A alpha chain allele A*24:02; conformational ELISA; peptide; concentration not given; relative to: positive control peptide, direction not given).
With `Phosphate` the Km was 66 ± 30 µM (Inorganic phosphate transporter PHO84 (PHO84, Saccharomyces cerevisiae, UniProt P25297); uptake, substrate; 10 min, pH 7.4, together with: 1 mM NaCl).
With `QLIMQLMPF` the binding score was 58.7% (HLA class I histocompatibility antigen, A alpha chain allele A*24:02; conformational ELISA; peptide; concentration not given; relative to: positive control peptide, direction not given).
The binding of `TILWKDIFHK` is reported as 96% (HLA class I histocompatibility antigen, A alpha chain (Homo sapiens, UniProt P04439); iTopia initial binding; peptide; 11 µM, 18 h, 21 °C, HLA-A3 allele; relative to: allele positive control peptide).
